Measurements pooled from the literature.
Each numbered part is a random draw from the data of one study; scales do not carry over between parts. Positions count from the first letter of the parent shown.

Study 1
Target: RNA binding protein fox-1 homolog 2, RRM domain, GST-SBP tag (RBFOX2, Homo sapiens, UniProt O43251-10, residues 100-194)
Method: RNA Bind-n-Seq
Form: RNA
Medium: in vitro
Tested at: 365 nM
Setting: natural RNA segment, single round, ends assumed
Relative to: no-protein control
Direction: higher = stronger binding
Measurement: RBNS enrichment (R)
All sequences stand within: GGGAGUUCUACAGUCCGACGAUC … UGGAAUUCUCGGGUGCCAA
Residues (chain): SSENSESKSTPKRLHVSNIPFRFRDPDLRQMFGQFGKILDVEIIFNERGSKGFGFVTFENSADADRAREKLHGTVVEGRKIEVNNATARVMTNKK
Sequence = UAUAUAAAGACUGGCACCCUGCCUCUCUGUGCCCAGGCCCAGCCCUGGUGACAUGGCACCACUCAGCAGUGCUGUCACUGUAAGCAUGGACUCCCAGGAGACAGUGUGGG; result = 0.685
Sequence = GUGGUUCAUUAAUAAUGUUAGCAGCUUUUUUCUAACCAUCCUGUCUAAUGGUUAAGACACCAGUAACAAAAACACAUGAUUUGGAAAUACUUUGGCUUUUUCAUAUACCU; result = 0.542
Sequence = GAGCAAUGCUACAUUGUUGUAAAAAGAAUUGCUAUUGUAAAAAAGCACUGUGUGACUUUGUGAAGGACACUGCCUUGGAAAUGUUGACUGACGUUUAUGCCUGGUGAUAG; result = 0.531
Sequence = CUGGGACCCCCGCCCAGCUUGGGGGGCUGCUCGUACGAGUGUAGACACUGGGCCCAUUGGACGUGCUGUUAACUACUAUCUUCAUUUCCCACUUCCCCUCUCUGAUUGGG; result = 0.538
Sequence = CCACUUGUCAAGAUUUCCCCUUUAGCGUGCUUGCUCCUCACCCCACCUGUACCUCCCUAUGUCCCCAUCCUUGCCCAGUCUCGACGUGCACCAAGGGCACAAGAGUGGCA; result = 2.3
Sequence = ACAAAAUGGAAUGUAGAGGAUGUCUAUGAGUUCAUCCGCUCUCUGCCAGGCUGCCAGGAGAUCGCGGAGGAGUUCCGUGCGCAGGAGAUUGAUGGGCAAGCCUUGCUGCU; result = 0.693
Sequence = GGUGUCUGGUAACCAUGGGCCUCCACUGACCCAUCCCUCUCUUUUAAACUGUCAGGUCAUUAUCAGGCAUAGGCAGCCUAUAGGGCCCAAAGAAGGCAAAAAGAUAAGAU; result = 0.298
Sequence = AAUAUAGGAAGCAUAUGCCUACUUGUAAUUUCUAACUCCUUAUGUUUGAAGAGAAACCUCCGGUGUGAGAUAUACAAAUAUAUUUAAUUGUGUCAUAUUAAACUUCUGAU; result = 0.636
Sequence = UCCUUCAAUUAAUAAAAUAUUUUUGCCAUAGUAUGUGACUCUACAUAACAUACUGAAACUAUUUAUAUUUUCUUUUUUAAGGAUAUUUAGAAAUUUUGUGUAUUAUAUGG; result = 0.815
Sequence = UUCAUUCUCAGGACCAAGGGAAACUGUCUUGCCUGUCCUCCUAUCUCCUCCCUUUCAGCAUCCUUUGGGGAACCUCCAGCCCAAGGCACUGUUAGGCUUGGGCAUUAGCC; result = 3.99
Sequence = UAAUCAAAGCUAUGCAUUUCAUAUAGCUUUUUCAUUUAAAACAAGACAAAGAAACAAAUUCCUAUGACCAAAUUGCUUGCCUACAGUUCCCUGCAGUAAUUGUAUGAUCU; result = 4.28
Sequence = AUUGGUGGUAUUAACCUAGAACCAGUAGUGUACGUUAAUACACAUAACUGUGGUGUUAUGUAAAUAAAAUUAGUAAUAAUCAGGCUUUAGAACUGCUUUCCUAUAUUUAU; result = 0.231

Study 2
Target: CCNA1, cyclin fold, Cln2 fusion (human)
Method: yeast growth competition, sequencing
Medium: yeast
Setting: weak parent motif
Relative to: not given
Direction: higher = stronger binding
Measurement: normalised enrichment score
Parent: KIF20B docking peptide (human); KRAKRKLYTSEIS; partner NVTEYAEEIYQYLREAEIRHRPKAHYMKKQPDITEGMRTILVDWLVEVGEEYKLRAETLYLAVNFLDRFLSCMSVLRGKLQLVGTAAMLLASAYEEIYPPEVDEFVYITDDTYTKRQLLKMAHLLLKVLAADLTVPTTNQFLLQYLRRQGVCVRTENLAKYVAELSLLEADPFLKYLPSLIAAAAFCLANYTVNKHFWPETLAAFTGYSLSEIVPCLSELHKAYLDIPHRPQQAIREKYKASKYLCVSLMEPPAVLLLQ
Substitution = S13A; result = 0.306
Substitution = E11A; result = 0.735
Substitution = R5A; result = 0.00957
Substitution = L7A; result = 0.49
Substitution = T9A; result = 0.331
Substitution = R2A; result = 0.199

Study 3
Target: ABI1, truncated, D143A, DHFR fusion (Arabidopsis thaliana)
Method: DHFR PCA, deep sequencing
Medium: yeast
Setting: methotrexate growth selection, single substitutions
Added: (+)-ABA 0 µM
Relative to: wild-type fitted maximum
Direction: higher = stronger binding
Measurement: relative binding score
Parent: PYL1, truncated, DHFR fusion (Arabidopsis thaliana); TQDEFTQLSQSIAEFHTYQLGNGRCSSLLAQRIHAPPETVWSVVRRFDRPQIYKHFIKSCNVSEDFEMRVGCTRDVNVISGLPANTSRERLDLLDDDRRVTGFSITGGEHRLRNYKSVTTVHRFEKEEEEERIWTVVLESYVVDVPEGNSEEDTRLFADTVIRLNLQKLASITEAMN
Substitution = E38Y; result = -3.01%
Substitution = H122G; result = 1.56%
Substitution = R99E; result = 5.37%
Substitution = R32S; result = 7.28%
Substitution = N85H; result = 61.8%
Substitution = N61T; result = 51.2%
Substitution = V78D; result = -0.0577%
Substitution = A13V; result = 8.19%
Substitution = Q7R; result = 14.3%
Substitution = R69P; result = -4.19%
Substitution = L8R; result = -5.21%
Substitution = L29E; result = 1.77%
Substitution = V137E; result = 2.33%
Substitution = V136H; result = -6.74%
Substitution = V136M; result = 11.8%
Substitution = H16G; result = 0.396%
Substitution = L94I; result = 2.95%
Substitution = E147F; result = 8.05%

Study 4
Target: Fragile X messenger ribonucleoprotein 1, C-terminal low-complexity region (Fmr1, Mus musculus, UniProt P35922)
Method: RNA Bind-n-Seq
Form: RNA
Medium: in vitro
Tested at: 200 nM
Setting: whole 134-nt RNA, ends assumed
Added: 150 mM KCl
Relative to: input library
Direction: higher = stronger binding
Measurement: log2 enrichment
All sequences stand within: GGGAGUUCUACAGUCCGACGAUC … UGGAAUUCUCGGGUGUCAAGG
Sequence = AGUCCUGUGCUACACAUCGUAUGUACCGAAUCGGGAAAAAGGGGAAAAAGGAAAAAGGAAAGUAUUAUGUUACGCCGUUCGGAUCUGCAC; result = -0.268
Sequence = GCAGGAAGUAAAAACAAAUGGAAAUGCUUCGGAUAGUGGCAGGGGUGGGGGUUGCUAAGGAAAGGGUGGGAUGGGACUGGGUAAAGAGUU; result = 0.406
Sequence = CAAGUCCUGUGCUACACAUCGUAUGUACCGAAUCGGUGGAAAAAGGAAAAAAAGGAAAGUAUUAUGUUACGCCGUUCGGAUCUGCACUUC; result = -0.492
Sequence = CCUCAAGUCCUGUGCUACACAUCGUAUGUACCGAAUCGGAAAAAGGAGGUGGAAAGUAUUAUGUUACGCCGUUCGGAUCUGCACUUCCAG; result = 0.277
Sequence = UCCUCAAGUCCUGUGCUACACAUCGUAUGUACCGAAUCGGGAGGAGGGAGGAAAGUAUUAUGUUACGCCGUUCGGAUCUGCACUUCCAGC; result = -0.258
Sequence = CACAGACAACACGCACCCACACAGACACAGAGGGAAGGGGUUGGGAGGGGGACAGGGUGCACAGCAGGGCGGGGUAGGACCCCAGCCCCU; result = 1.3
Sequence = CAAGUCCUGUGCUACACAUCGUAUGUACCGAAUCGGGUGGGUUUUUGGGAAAGGGAAAGUAUUAUGUUACGCCGUUCGGAUCUGCACUUC; result = 0.526
Sequence = AAGUCCUGUGCUACACAUCGUAUGUACCGAAUCGGGAAAAAGGGAAAAAGGGAGGGAAAGUAUUAUGUUACGCCGUUCGGAUCUGCACUU; result = 0.524
Sequence = UGUUGAAAUGGGACAGUUGGCAGCGGCUCUGAUGAGCCCGAGAAGAGGCCUGCCCUUGGGUGCGGAGUCUCCCUCCGCACGAUGCUCCCA; result = -0.674
Sequence = ACCAUGCAGGUGGGCAUCUUUGGGAAGUGGGGCAAAAGGGGGAUAGGGAGGGGGGUAACACUUUGGGAACAGGUGGUCCCAGGUCGUUUC; result = 0.634
Sequence = GCAGGAAGUAAAAACAAAUGGAAAUGCUUCGGAUAGUGGCAGGGGUGGGGGUUGCUAAGGAAAAGGUGGGAUGGGAGUGGGUAAAGAGUU; result = 0.377
Sequence = CCUGUGCUACACAUCGUAUGUACCGAAUCGGGGCCCCCCGGGGCCCCCCGGGCCCCCCGGGAAAGUAUUAUGUUACGCCGUUCGGAUCUG; result = -0.964
Sequence = CCUGUGCUACACAUCGUAUGUACCGAAUCGGCCCCCCGGGGCCCCCCGGGGCCCCCCGGGAAAGUAUUAUGUUACGCCGUUCGGAUCUGC; result = -0.77
Sequence = UCCUGUGCUACACAUCGUAUGUACCGAAUCGGGAAAAAAGGAAAAAAGGGGAAAAAAGGAAAGUAUUAUGUUACGCCGUUCGGAUCUGCA; result = -0.497

Study 5
Target: Homeobox protein Hox-C11, full length (HOXC11, Homo sapiens, UniProt O43248, residues 1-304)
UniProt O43248, sequence (whole entry, looked up): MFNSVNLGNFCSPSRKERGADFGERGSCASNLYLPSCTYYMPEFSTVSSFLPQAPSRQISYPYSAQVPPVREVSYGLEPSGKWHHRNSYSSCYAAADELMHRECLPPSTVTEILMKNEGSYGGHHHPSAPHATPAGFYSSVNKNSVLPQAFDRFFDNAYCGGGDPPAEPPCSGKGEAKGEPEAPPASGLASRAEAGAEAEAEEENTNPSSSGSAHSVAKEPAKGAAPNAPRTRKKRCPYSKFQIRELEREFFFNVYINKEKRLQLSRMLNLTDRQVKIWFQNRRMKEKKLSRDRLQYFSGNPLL
Method: protein-binding microarray
Form: hairpin DNA
Medium: in vitro
Tested at: not given
Setting: whole hairpin DNA, median over replicate spots
Relative to: not given
Direction: higher = stronger binding
Measurement: median fluorescence
Sequence = GAGGCCAGGTCGTATAAGCCTCCTGGCTTATACGACCTGGCCTCACACTC; result = 9860 a.u.
Sequence = GAGGCCAGGTCGTTAACGCCTCCTGGCGTTAACGACCTGGCCTCACACTC (5mC at 17); result = 10600 a.u.
Sequence = GAGGCCAGGTCGTTACAGCCTCCTGGCTGTAACGACCTGGCCTCACACTC (5mC at 16); result = 9920 a.u.
Sequence = GAGGCCAGATCGTTAAAGCCTCCTGGCTTTAACGATCTGGCCTCACACTC; result = 9780 a.u.
Sequence = GAGGCCCGGTCGTAAAAGCCTCCTGGCTTTTACGACCGGGCCTCACACTC; result = 9970 a.u.
Sequence = GAGGCCAGGTGGTTAAAGCCTCCTGGCTTTAACCACCTGGCCTCACACTC (5mC at 34); result = 9600 a.u.
Sequence = GAGGCCAGGTCCGAAAAGCCTCCTGGCTTTTCGGACCTGGCCTCACACTC (5mC at 12); result = 9110 a.u.
Sequence = GAGGCCAGGTCGCTAAAGCCTCCTGGCTTTAGCGACCTGGCCTCACACTC (5mC at 13); result = 9860 a.u.
Sequence = GAGGCCAGGGCGTTAAAGCCTCCTGGCTTTAACGCCCTGGCCTCACACTC (5mC at 35); result = 9950 a.u.
Sequence = GAGGCCAGGTCGTAAAAGCCTCCTGGCTTTTACGACCTGGCCTCACACTC (5mC at 33); result = 10500 a.u.
Sequence = GAGGCCAGGTCGTCGAAGCCTCCTGGCTTCGACGACCTGGCCTCACACTC; result = 10200 a.u.
Sequence = GAGGCCAGGTCGTTGAAGCCTCCTGGCTTCAACGACCTGGCCTCACACTC (5mC at 30); result = 10300 a.u.
Sequence = GAGGCCAGGCCGTAAAAGCCTCCTGGCTTTTACGGCCTGGCCTCACACTC (5mC at 10); result = 9510 a.u.
Sequence = GAGGCCAGGTCGTAACAGCCTCCTGGCTGTTACGACCTGGCCTCACACTC (5mC at 16); result = 10900 a.u.

For quick reference, copied from above (study 1):
Sequence = UAUAUAAAGACUGGCACCCUGCCUCUCUGUGCCCAGGCCCAGCCCUGGUGACAUGGCACCACUCAGCAGUGCUGUCACUGUAAGCAUGGACUCCCAGGAGACAGUGUGGG; result = 0.685
Sequence = UAAUCAAAGCUAUGCAUUUCAUAUAGCUUUUUCAUUUAAAACAAGACAAAGAAACAAAUUCCUAUGACCAAAUUGCUUGCCUACAGUUCCCUGCAGUAAUUGUAUGAUCU; result = 4.28
Sequence = CUGGGACCCCCGCCCAGCUUGGGGGGCUGCUCGUACGAGUGUAGACACUGGGCCCAUUGGACGUGCUGUUAACUACUAUCUUCAUUUCCCACUUCCCCUCUCUGAUUGGG; result = 0.538
Sequence = UCCUUCAAUUAAUAAAAUAUUUUUGCCAUAGUAUGUGACUCUACAUAACAUACUGAAACUAUUUAUAUUUUCUUUUUUAAGGAUAUUUAGAAAUUUUGUGUAUUAUAUGG; result = 0.815
Sequence = ACAAAAUGGAAUGUAGAGGAUGUCUAUGAGUUCAUCCGCUCUCUGCCAGGCUGCCAGGAGAUCGCGGAGGAGUUCCGUGCGCAGGAGAUUGAUGGGCAAGCCUUGCUGCU; result = 0.693
Sequence = UUCAUUCUCAGGACCAAGGGAAACUGUCUUGCCUGUCCUCCUAUCUCCUCCCUUUCAGCAUCCUUUGGGGAACCUCCAGCCCAAGGCACUGUUAGGCUUGGGCAUUAGCC; result = 3.99
Sequence = AUUGGUGGUAUUAACCUAGAACCAGUAGUGUACGUUAAUACACAUAACUGUGGUGUUAUGUAAAUAAAAUUAGUAAUAAUCAGGCUUUAGAACUGCUUUCCUAUAUUUAU; result = 0.231
Sequence = AAUAUAGGAAGCAUAUGCCUACUUGUAAUUUCUAACUCCUUAUGUUUGAAGAGAAACCUCCGGUGUGAGAUAUACAAAUAUAUUUAAUUGUGUCAUAUUAAACUUCUGAU; result = 0.636
Sequence = GUGGUUCAUUAAUAAUGUUAGCAGCUUUUUUCUAACCAUCCUGUCUAAUGGUUAAGACACCAGUAACAAAAACACAUGAUUUGGAAAUACUUUGGCUUUUUCAUAUACCU; result = 0.542
